Results of several laboratories.
Numbered parts are unrelated; each lists some results of a single study. Positions count from the first letter of the parent shown.

Block 1
Target: CCND2, cyclin fold, Cln2 fusion (human)
Technique: yeast growth competition, sequencing
Medium: yeast
Notes: weak parent motif
Baseline: not given
Direction: higher = stronger binding
Starting sequence: GMNC docking peptide (human); KNAKRNLSSEFAN
Under “normalised enrichment score”, `N2D` is recorded as 0.0766.
Under “normalised enrichment score”, `S9L` is recorded as 0.452.
`A3C`: “normalised enrichment score” 0.391.
For `F11M`, “normalised enrichment score” read 0.275.
`R5K` — result for “normalised enrichment score”: 0.206.

Block 2
Target: RNA binding protein fox-1 homolog 2, RRM domain, GST-SBP tag (RBFOX2, Homo sapiens, UniProt O43251-10, residues 100-194)
Technique: RNA Bind-n-Seq
Molecule type: RNA
Medium: in vitro
Tested at: 365 nM
Notes: natural RNA segment, single round, ends assumed
Baseline: no-protein control
Direction: higher = stronger binding
All sequences stand within: GGGAGUUCUACAGUCCGACGAUC … UGGAAUUCUCGGGUGCCAA
Under “RBNS enrichment (R)”, `CUAGACUGCGGAUUGGCGUGACAAAGCAAUGGCUGUGUCAGCUGGGCCUUCAUCCAGGAACAGACCAACAUAAACCAGCAUCUUCUACCAGUUAGCACUGUCCUCCUGGA` is recorded as 4.88.
`AACCCACUGAAGGGCUUCAGGUUUCAUUUUUUAAUCUUCUCAAAAACCAGAAAAAAAAAAUCAGAAAAGUGUUCUCAGGUUCACCUUACGUCCUGCCUACAACUCCCGAG`: “RBNS enrichment (R)” 0.614.
Under “RBNS enrichment (R)”, `CUCCCCCCACUUGUCCCCCGUCCUUGCAGCUCCAGCACUGCCUUUGUGGGUGACCACUCCAGACCCUCCUGCCAAGGAGAGCAUGGGAGAGGGCAGAGUACAAUGGGGUG` is recorded as 0.367.
For `ACAAGGCAGGACUUUGGCAAUGCCUUGGCCUCCUGGAAGCAUGUCUGAGCCCUCCUGUUCGCAGGGAUCAUGAGGAACAAGCCCUCCUGAGCUGCUACAGUUCCUGCCUG`, “RBNS enrichment (R)” read 7.13.
`CAUUUUAUGUCACUAUAAUCUUUUGUUUUUUAAGUUAGUGUAUAUUUUGUUGUGAUUAUCUUUUUGUGGUGUGAAUAAAUCUUUUAUCUUGAAUGUAAUAAGAAUUUGGU`: “RBNS enrichment (R)” 4.35.

Block 3
Target: Prothrombin, mature alpha-thrombin (F2, Homo sapiens, UniProt P00734)
Technique: aptamer microarray, sandwich
Molecule type: DNA with 2'F-ANA
Medium: in vitro
Tested at: 200 nM
Notes: whole 15-mer aptamer, many near background
With: Cy3 exosite-II aptamer, 400 nM
Direction: higher = stronger binding
Strand: GGTTGGTGTGGTTGG
Under “mean fluorescence intensity”, `2'F-ANA at 1 10 13 14 15` is recorded as 63.6 a.u.
Under “mean fluorescence intensity”, `2'F-ANA at 1 2 4 5 10 11 12 14 15` is recorded as 52.4 a.u.
Under “mean fluorescence intensity”, `2'F-ANA at 1 4 9 10 15` is recorded as 61.2 a.u.
`2'F-ANA at 1 3 4 5 6 7 8 9 10 11 12 14 15` — result for “mean fluorescence intensity”: 48.3 a.u.
Under “mean fluorescence intensity”, `2'F-ANA at 1 2 3 4 7 8 9 11 12 14` is recorded as 75.9 a.u.

Further values, each from its own experiment
The fold induction of `PhoQ, residues 284 288 289 292 302 303 NLCILV` is reported as 23.3 (PhoP, residues 12 14 15 18 19 GQAIL (Escherichia coli, UniProt P23836); Sort-seq, measured: YFP reporter; E. coli; PhoQ-PhoP variant library, with: 10 µM Mg2+; baseline: high Mg2+ state, higher = stronger signaling).

For quick reference, copied from above (block 1):
`A3C`: “normalised enrichment score” 0.391.
For `F11M`, “normalised enrichment score” read 0.275.
